Assay results gathered from unrelated publications.
Every numbered part comes from another study and shows a few of its results, in no order. Positions count from the first letter of the parent shown.

Series 1
Target: ABI1, truncated, D143A, DHFR fusion (Arabidopsis thaliana)
Method: DHFR PCA, deep sequencing
Sample: yeast
Notes: methotrexate growth selection, single substitutions
Added: (+)-ABA 0 µM
Baseline: wild-type fitted maximum
Direction: higher = stronger binding
Parent: PYL1, truncated, DHFR fusion (Arabidopsis thaliana); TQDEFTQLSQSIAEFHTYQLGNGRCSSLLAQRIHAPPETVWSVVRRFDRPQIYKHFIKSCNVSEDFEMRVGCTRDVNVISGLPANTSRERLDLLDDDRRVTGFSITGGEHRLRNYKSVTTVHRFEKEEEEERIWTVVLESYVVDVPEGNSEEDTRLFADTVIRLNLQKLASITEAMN
`M68L`: “relative binding score” 57.1%.
For `L82T`, “relative binding score” read 7.39%.
For `S59P`, “relative binding score” read 0.307%.
Under “relative binding score”, `C60R` is recorded as 6.49%.
Under “relative binding score”, `W134C` is recorded as 27.7%.
`T106S`: “relative binding score” -1.55%.
For `F15T`, “relative binding score” read -2.53%.
`R111E` — result for “relative binding score”: 3.12%.
For `W41D`, “relative binding score” read 1.49%.
Under “relative binding score”, `L169I` is recorded as -3.23%.
`T106Y` — result for “relative binding score”: -0.159%.
For `G102M`, “relative binding score” read 1.25%.
Under “relative binding score”, `N61C` is recorded as 29%.
For `Q19C`, “relative binding score” read 12.2%.
`R123W` — result for “relative binding score”: -5.22%.
Under “relative binding score”, `H122E` is recorded as 0.802%.
`R46Q` — result for “relative binding score”: 43.3%.
`E109Q`: “relative binding score” 4.46%.
Under “relative binding score”, `V78W` is recorded as 75.9%.
Under “relative binding score”, `I105G` is recorded as 0.489%.
`V40L`: “relative binding score” -2.24%.
`T6R`: “relative binding score” 49.1%.

Series 2
Molecule: PhoQ, residues 284 288 289 292 302 303 SSTLSG
Method: Sort-seq
Refers to: YFP reporter
Sample: E. coli
Notes: PhoQ-PhoP variant library
Added: 10 µM Mg2+
Baseline: high Mg2+ state
Direction: higher = stronger signaling
PhoP, residues 12 14 15 18 19 LHHYF (Escherichia coli, UniProt P23836) — fold induction: 16.1.
The fold induction was 10.8 (PhoP, residues 12 14 15 18 19 TPWTL (Escherichia coli, UniProt P23836)).
PhoP, residues 12 14 15 18 19 VGHWL (Escherichia coli, UniProt P23836) — fold induction: 1.15.
The fold induction was 13.4 (PhoP, residues 12 14 15 18 19 NFFVT (Escherichia coli, UniProt P23836)).

Series 3
Target: RING finger protein unkempt homolog, zinc fingers 1-6, GST-SBP tag (UNK, Homo sapiens, UniProt Q9C0B0, residues 30-357)
Method: RNA Bind-n-Seq
Form: RNA
Sample: in vitro
Concentration: not given
Notes: RNA with constant flanks, human-mouse chimeric sites, ends assumed
Baseline: input RNA pool
Direction: higher = stronger binding
Construct (chain): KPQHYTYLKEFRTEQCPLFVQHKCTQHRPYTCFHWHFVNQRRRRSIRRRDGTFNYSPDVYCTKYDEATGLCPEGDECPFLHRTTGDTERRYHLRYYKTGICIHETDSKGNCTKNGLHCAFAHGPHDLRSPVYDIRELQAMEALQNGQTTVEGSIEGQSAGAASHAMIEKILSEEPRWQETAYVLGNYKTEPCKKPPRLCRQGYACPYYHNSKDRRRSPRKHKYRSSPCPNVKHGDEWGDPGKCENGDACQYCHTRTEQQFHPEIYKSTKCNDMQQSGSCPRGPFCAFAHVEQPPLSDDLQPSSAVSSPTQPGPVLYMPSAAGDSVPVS
The bound/input enrichment of `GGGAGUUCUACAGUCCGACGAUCCUUCGGAAAAAAAAAUUACCUUUUCUGACAGUGCUUUCCCUCCCAUAGAUCCACGUUCAAGCUCAAAGAGCAAAGGCUUUGCACGGAGCUCAAACAUAAAAGAAAGAAAGAUUUCUGAGACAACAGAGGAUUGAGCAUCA` is reported as 0.32 ratio.
`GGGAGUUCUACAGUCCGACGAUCAUAGAUGAAAUUGAUGUGGACCAGGAAGGAAUUGCUGAAAUGAUCCUGGAUGAAAAUGCUAUAGCUCAAGUUCCACGCCCUGGCACAUCUUUGAAGCUCCCUGGCACUAACCAAACAGGACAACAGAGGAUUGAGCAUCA` has a bound/input enrichment of 0.301 ratio.
With `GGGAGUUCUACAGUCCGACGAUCAACGUGGAACUAAGUUCCUUGGCCCGGCUUCCCAGCUUAAAUAAACUCCGGAAGUUGGAACUUAGUGACAAUAUAAUUUCUGGAGGCUUGGAAGUCCUGGCAGAGAAAUGUCCAAAUCUUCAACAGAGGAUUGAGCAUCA` the bound/input enrichment was 0.164 ratio.
With `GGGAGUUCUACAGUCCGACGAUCCUGUGCGACUAUUCUCCCUGGAGUGGCUGGAGUUCCCGCCGGAGCGCGGCCAGACUAAUUUUAGAAAAUGCCAAGUAGGAAGUUUGUUGAGGGUGAAGUGGUCAGAGGCCGAUGGCCUGGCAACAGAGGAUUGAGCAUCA` the bound/input enrichment was 5.25 ratio.
The bound/input enrichment of `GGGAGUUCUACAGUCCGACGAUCAUGGAACAUUUCGAUGCGUCACUCAGUACCUAUUUCAAGGCCUUCCUGGGCCCCCGAGAUACAAGAGUCAAAGGAUGGUUUCUUCUGGACAAUUACAUCCCUACGUUUGUCUGUUCUGUUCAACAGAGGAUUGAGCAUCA` is reported as 0.0984 ratio.
`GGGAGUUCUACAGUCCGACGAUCGCAGGAUCUUCUAAAUACCAGUGGGACAUUAUGAAAUCCCUUGGGCUCUCUGAUGACGAGAUAGUAAAGUUUUCUGAAGCAGAGCACUGGCUUGAUUAUUUCCCACCACUGGCCGUUCAGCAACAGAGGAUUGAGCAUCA` gave a bound/input enrichment of 0.201 ratio.
`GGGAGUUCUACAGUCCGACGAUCAACAUUUUGUCAAAUUGUUAUGUUCCUGUGAAACAAGUGAACACUCUGAUACACUUCAUCUGCUUGUACAUCUGUAUGAUAGAGAAAUGUAAAUAUGAAUAUAUUUACAAUGUGUCACUUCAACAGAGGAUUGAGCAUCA` has a bound/input enrichment of 0.112 ratio.
The bound/input enrichment of `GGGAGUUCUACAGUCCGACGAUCCGCUUGGAUGAGGCUGGUGUUACUGAUGAAGUGCUAGAUUCUGCCAUGCAAGCCUUCCUUCUGGAGGUCAUUGUUAAACAUGGGGAGCCGGCACCUUAUUUAUGUAACAAAGAUCCGUUUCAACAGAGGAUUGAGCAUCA` is reported as 0.0933 ratio.

Series 4
Target: CCND3, cyclin fold, Cln2 fusion (human)
Method: yeast growth competition, sequencing
Sample: yeast
Notes: weak parent motif
Baseline: not given
Direction: higher = stronger binding
Parent: CDKN1B docking peptide (human); PSACRNLFGPVDH; partner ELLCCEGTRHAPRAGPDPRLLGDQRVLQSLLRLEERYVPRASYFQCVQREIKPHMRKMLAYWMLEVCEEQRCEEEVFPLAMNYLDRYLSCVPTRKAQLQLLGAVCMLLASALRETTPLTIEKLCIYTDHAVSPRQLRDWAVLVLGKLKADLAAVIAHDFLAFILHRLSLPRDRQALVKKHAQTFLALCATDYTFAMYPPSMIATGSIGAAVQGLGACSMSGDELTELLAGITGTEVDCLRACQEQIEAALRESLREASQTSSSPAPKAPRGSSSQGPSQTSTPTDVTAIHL
Under “normalised enrichment score”, `PSACRNNFGPVDH [L7N]` is recorded as 0.0627.
`PSAWRNLFGPVDH [C4W]` — result for “normalised enrichment score”: 0.133.
Under “normalised enrichment score”, `PSACRNLFGPSDH [V11S]` is recorded as 0.113.
`PIACRNLFGPVDH [S2I]`: “normalised enrichment score” 0.136.
Under “normalised enrichment score”, `PSACHNLFGPVDH [R5H]` is recorded as 0.116.
`PSACRNLFGPCDH [V11C]` — result for “normalised enrichment score”: 0.069.
Under “normalised enrichment score”, `PSACRNLWGPVDH [F8W]` is recorded as 0.133.
For `PSACRNLFGPADH [V11A]`, “normalised enrichment score” read 0.143.
`PSACRWLFGPVDH [N6W]`: “normalised enrichment score” 0.141.
`PSACRVLFGPVDH [N6V]`: “normalised enrichment score” 0.154.
Under “normalised enrichment score”, `PSACRNLFGKVDH [P10K]` is recorded as 0.12.
For `PSACRNLFGPVDW [H13W]`, “normalised enrichment score” read 0.178.
For `PSACRNLFGVVDH [P10V]`, “normalised enrichment score” read 0.117.
Under “normalised enrichment score”, `PSACRNLFHPVDH [G9H]` is recorded as 0.0772.
Under “normalised enrichment score”, `PSACRNLFGCVDH [P10C]` is recorded as 0.0844.
For `ISACRNLFGPVDH [P1I]`, “normalised enrichment score” read 0.0706.

For quick reference, copied from above (series 4):
For `PSACRNLFGPADH [V11A]`, “normalised enrichment score” read 0.143.
`PSACRWLFGPVDH [N6W]`: “normalised enrichment score” 0.141.
`PSACRVLFGPVDH [N6V]`: “normalised enrichment score” 0.154.
Under “normalised enrichment score”, `PSACRNLFGKVDH [P10K]` is recorded as 0.12.
For `PSACRNLFGPVDW [H13W]`, “normalised enrichment score” read 0.178.
For `PSACRNLFGVVDH [P10V]`, “normalised enrichment score” read 0.117.
Under “normalised enrichment score”, `PSACRNLFHPVDH [G9H]` is recorded as 0.0772.
Under “normalised enrichment score”, `PSACRNLFGCVDH [P10C]` is recorded as 0.0844.
